Results collected from several papers.
Numbered parts are unrelated; each lists some results of a single study. Positions count from the first letter of the parent shown.

Block 1 — technique: RNA Bind-n-Seq; molecule type: RNA; sample: in vitro; tested at: 200 nM; notes: whole 134-nt RNA, ends assumed; added: 150 mM KCl; reference: input library; reading: higher = stronger binding
Target: Ras GTPase-activating protein-binding protein 1, full length (G3BP1, Homo sapiens, UniProt Q13283)
Chain of UniProt Q13283 (whole entry, looked up): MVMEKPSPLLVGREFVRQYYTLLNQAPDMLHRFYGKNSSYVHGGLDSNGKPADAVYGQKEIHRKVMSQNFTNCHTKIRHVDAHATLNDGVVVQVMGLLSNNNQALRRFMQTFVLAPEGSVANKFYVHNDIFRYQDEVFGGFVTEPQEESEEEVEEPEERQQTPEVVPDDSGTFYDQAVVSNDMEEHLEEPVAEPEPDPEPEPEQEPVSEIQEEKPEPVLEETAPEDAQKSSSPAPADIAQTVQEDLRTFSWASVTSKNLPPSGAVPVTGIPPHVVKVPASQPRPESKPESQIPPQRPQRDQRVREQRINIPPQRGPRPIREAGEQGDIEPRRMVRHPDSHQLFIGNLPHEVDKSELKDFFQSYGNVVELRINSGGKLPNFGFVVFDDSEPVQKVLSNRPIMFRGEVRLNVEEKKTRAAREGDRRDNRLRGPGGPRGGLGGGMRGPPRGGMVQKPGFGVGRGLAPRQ
Constant ends, left off below: GGGAGUUCUACAGUCCGACGAUC … UGGAAUUCUCGGGUGUCAAGG
Sequence | log2 enrichment
AAGUCCUGUGCUACACAUCGUAUGUACCGAAUCGGGAGGGUUUGGGUUUUUUUGGGAAAGUAUUAUGUUACGCCGUUCGGAUCUGCACUU | -0.0581
UCCUGUGCUACACAUCGUAUGUACCGAAUCGGGUUUUUGGGAAAAAGGGAAAAAAAGGGAAAGUAUUAUGUUACGCCGUUCGGAUCUGCA | -0.312
ACCAUGCAGGUGGGCAUCUUUGGGAAGUGGGGCAAGGAGGGGAUAGGGAGGGGGGUAACACUUUGGGAACAGGUGGUCCCAGGUCGUUUC | 1
GCAAGAAGUAAAAACAAAUGGAAAUGCUUCGGAUAGUGGCAGGGGUGGGGGUUGCUAAGGAAAGGGUGGGAUGGGAGUGGGUAAAGAGUU | 0.779
UCAAGUCCUGUGCUACACAUCGUAUGUACCGAAUCGGUUUGGUUUUUGGAAAGGAAAGUAUUAUGUUACGCCGUUCGGAUCUGCACUUCC | -0.819
UUAUCACCAGGACUGCCAUGUUCCCAGGGCUCCAGCCCCUGGAGAGGGAGAGGGCACAUCCUGGGUAUGCCGCCAGUGUGUCUUUGCGAU | -0.649
UCAAGUCCUGUGCUACACAUCGUAUGUACCGAAUCGGGAAGGGAAGGGAAGGGGAAAGUAUUAUGUUACGCCGUUCGGAUCUGCACUUCC | 1.3
ACCAUGCAGGUGGGCAUCUUUGGGAAGUGGGGCAAGGGGGGGAUACGGAGGGGGGUAACACUUUGGGAACAGGUGGUCCCAGGUCGUUUC | 1.02
CUGUGCUACACAUCGUAUGUACCGAAUCGGGGUUUUUUUGGUUUUUUUGGGUUUUUUUGGGAAAGUAUUAUGUUACGCCGUUCGGAUCUG | -1
CACAGACAACACGCACCCACACAGACACAGAAAGAAGGGGUUGGGAUGGGGACAGGGUGCACAGCAGGGCGGGGUAGGACCCCAGCCCCU | 1.8
UCCUGUGCUACACAUCGUAUGUACCGAAUCGGGAAAAAAGGGAAAAAAGGGGAAAAAAGGAAAGUAUUAUGUUACGCCGUUCGGAUCUGC | -0.535
UGGCCCUGGUGGCAUGCGGGGAGGAAGAGGUGGCCUCAUAGAUCGUGGUGGUCCCGGUGGAAUGUUCAGAGGUGGCCGUGGUGGAGACAG | 0.217

Block 2 — technique: protein-binding microarray; molecule type: double-stranded DNA, one strand shown; sample: in vitro; tested at: 0.8 µM; notes: whole 60-bp probe, no competitor; reading: higher = stronger binding; constant ends, left off below: … GTCTTGATTCGCTTGACGCTGCTG
Target: Centromere-binding protein 1, full length, N-terminal tag (CBF1, Saccharomyces cerevisiae, UniProt P17106, residues 1-351)
Chain of UniProt P17106 (whole entry, looked up): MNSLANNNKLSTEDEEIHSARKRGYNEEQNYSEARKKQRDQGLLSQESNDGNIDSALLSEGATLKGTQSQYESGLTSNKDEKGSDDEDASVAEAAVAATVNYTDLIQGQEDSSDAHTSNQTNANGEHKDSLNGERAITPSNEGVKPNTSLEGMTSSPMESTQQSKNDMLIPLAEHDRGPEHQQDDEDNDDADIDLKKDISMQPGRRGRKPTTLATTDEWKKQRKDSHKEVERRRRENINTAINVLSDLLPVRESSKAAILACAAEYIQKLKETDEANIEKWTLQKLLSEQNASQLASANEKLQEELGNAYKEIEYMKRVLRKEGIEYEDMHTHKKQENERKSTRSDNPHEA
Sequence | fluorescence intensity
GAAAGTGCTAATAATCACATGGTTCGTAGAGGGTAG | 2030 a.u.
CTATTTTTCATTCACGTGTGCAGCCACGTGCGGTTC | 16100 a.u.
CTACTCAACACATCTCAGCTGATTGTTCCTTATTTC | 584 a.u.
GAAGTGTTTCTTTCTGATGCTACATAGAAGAACTAG | 585 a.u.
CTAGAAAATTTTCACCACGAGCAGTTTCTTGTGTTC | 601 a.u.
GAAAATTTCCTCTACGTGATGGTTGTATGTAAATAG | 626 a.u.
GAATCCAAGTCAGGACACGGGGAAAATCTTTACTAG | 729 a.u.
GAACATACATAAAAGCACATGAAGGGCAGCAAATAG | 633 a.u.
GAAACCCAGCTGGGACATGTGAATAAGTCTCAATAG | 660 a.u.
GAACAATTTATGTCGAACGTGCTTATGACTCCATAG | 617 a.u.
CTAAGGAGGGATAGACGCACGACACTATCTGGTTTC | 510 a.u.
CTAACGCCAAAGTTCCACGTTCAAATAAAACTTTTC | 538 a.u.
CTAAATTTGGATATTTGTGTGACCCTTTTGTTTTTC | 511 a.u.
TGTACGAAGCTATGTGGTGTTACTATAGTAGTTAGG | 500 a.u.
GAAGTATAAGGCTACGTGGTGGCCTTGAATTCGTAG | 478 a.u.
CTAGTTAATAACTACCATGTGCATGCTACAAAGTTC | 886 a.u.
CTACTATTTCAGATTCGCGTGCGCTTCCTTTATTTC | 530 a.u.
CTAGTAACATTCAGATGCGTGCGTCATTTATTCTTC | 535 a.u.
CTAAGTGTTGATTGAGACGTGTTGTGTTTAAACTTC | 555 a.u.

Block 3 — target: CCNB3, cyclin fold, Cln2 fusion (human); technique: yeast growth competition, sequencing; sample: yeast; notes: weak parent motif; reference: not given; reading: higher = stronger binding
Parent: GMNC docking peptide (human); KNAKRNLSSEFAN; partner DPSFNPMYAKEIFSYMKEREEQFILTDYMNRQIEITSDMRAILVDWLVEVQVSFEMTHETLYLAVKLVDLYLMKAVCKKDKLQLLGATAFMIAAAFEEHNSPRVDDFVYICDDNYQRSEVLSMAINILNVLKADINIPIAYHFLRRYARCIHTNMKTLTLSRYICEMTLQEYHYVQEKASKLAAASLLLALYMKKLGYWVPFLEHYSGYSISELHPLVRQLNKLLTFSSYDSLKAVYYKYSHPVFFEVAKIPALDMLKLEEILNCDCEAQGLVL
Change | normalised enrichment score
L7E | -0.0492
L7I | 0.0613
K4L | 0.205
K4Q | 0.111
F11Y | 0.0189
E10Y | -0.342
N6R | 0.0447
E10T | 0.129
A3W | 0.528
L7V | -0.105
S8G | 0.265
F11Q | 0.341
L7R | -0.0122
R5W | 0.114
K4W | 0.321
N2F | 0.469

Further values, each from its own experiment
Molecule | target | assay | system | conditions | how to read | quantity | value
PhoQ, residues 284 288 289 292 302 303 SACGEM | PhoP, residues 12 14 15 18 19 AQCLL (Escherichia coli, UniProt P23836) | Sort-seq, item: YFP reporter | E. coli | PhoQ-PhoP variant library, added: 10 µM Mg2+ | reference: high Mg2+ state, higher = stronger signaling | fold induction | 4.24
